Measured values collected from several papers.
Each numbered part is a random draw from the data of one study; scales do not carry over between parts. Positions count from the first letter of the parent shown.

Series 1
Target: Interferon regulatory factor 7, full length, phosphomimetic (IRF7, Homo sapiens, UniProt Q92985, residues 1-503, S101K/S471D/S472D/S475D/S476D/S477D/S483D/S484D/S487D)
Method: protein-binding microarray
Molecule type: double-stranded DNA, one strand shown
Sample: in vitro
Tested at: 250 nM
Notes: 60-bp whole probe
With: salmon DNA 0.4 mg/ml
Relative to: random background probes
Reading: higher = stronger binding
Quantity: log fluorescence
All sequences stand within: GCCTAGCAC … GTCTTGATTCGCTTGACGCTGCTG
Construct (chain): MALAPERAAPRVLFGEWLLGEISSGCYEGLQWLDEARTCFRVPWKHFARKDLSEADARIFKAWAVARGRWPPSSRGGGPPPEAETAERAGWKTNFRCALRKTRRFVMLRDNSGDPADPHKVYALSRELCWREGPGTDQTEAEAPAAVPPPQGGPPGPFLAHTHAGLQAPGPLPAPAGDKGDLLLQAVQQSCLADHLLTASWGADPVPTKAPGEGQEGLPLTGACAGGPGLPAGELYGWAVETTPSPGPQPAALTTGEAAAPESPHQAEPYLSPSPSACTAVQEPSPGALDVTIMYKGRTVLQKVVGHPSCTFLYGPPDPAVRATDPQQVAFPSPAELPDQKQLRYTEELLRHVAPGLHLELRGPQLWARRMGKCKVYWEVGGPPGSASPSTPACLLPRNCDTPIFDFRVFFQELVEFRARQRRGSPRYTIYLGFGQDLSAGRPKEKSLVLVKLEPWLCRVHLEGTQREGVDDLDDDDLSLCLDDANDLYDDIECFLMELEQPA
TTAGATTTCAATATCGATTAGTGCTAG: 0.305 z-score
TCAAAATTAGTGTTTGCCACTGTGCTA: -0.453 z-score
TCACCTGTGCTATTTATAACTGTGCTA: -0.526 z-score
TTTGGTCTCGGTCTCGGTTAGTGCTAG: 2.58 z-score
TTAGGTATCGGGTATCGGCTAGTGCTA: 0.491 z-score
GACGAACTGGCGACTGGAGACGTGCTA: -0.752 z-score
GACGGTCTCCTTTTCCTGCCGTGCTAG: 1.05 z-score
TTAGATTCCAGTTTCGATTCGTGCTAG: 13.1 z-score
TTACGACTGGGTCTCGGTTAGTGCTAG: 0.966 z-score
TTAGATCTCAGTAGCGATTAGTGCTAG: 0.0554 z-score
GACAGTCTCGGTTTCGGGACGTGCTAG: 8.19 z-score
TCAAAATTGTCTCTGTCACTGTGCTAG: -0.0456 z-score
GACGGTTTCGGTCTCGGGAAGTGCTAG: 8.93 z-score
TTAGGTTTTGGTTCCGGTTAGTGCTAG: 4.04 z-score
TCATCATTGCATATAGAACTGTGCTAG: 0.052 z-score
TTAGGTCTCCTTTTGCTTTAGTGCTAG: 1.99 z-score
GACGGTATCGGATATCGGGACGTGCTA: 0.23 z-score
GACGGTTCCCTTTTCCTGTCGTGCTAG: 3.69 z-score
TTATGTTTCCTACTGCTTTAGTGCTAG: 1.41 z-score
TTAGGTTTAGGTCTCGGTTAGTGCTAG: 1.33 z-score
TTAGATTTGAGTATCGATTAGTGCTAG: 1 z-score
TTAGGACTGCTAGTGCTTTAGTGCTAG: -0.698 z-score
TCATAAGCAAAAATGATACTGTGCTAG: 0.255 z-score
AACGAACTGAGTCTCGAGACGTGCTAG: 0.41 z-score
TTAGATACCGGGACTGGATTAGTGCTA: -0.0116 z-score

Series 2
Target: CCNA1, cyclin fold, Cln2 fusion (human)
Method: yeast growth competition, sequencing
Sample: yeast
Notes: weak parent motif
Relative to: not given
Reading: higher = stronger binding
Quantity: normalised enrichment score
Parent: FOXM1 docking peptide (human); PHLARPIKVESPP; partner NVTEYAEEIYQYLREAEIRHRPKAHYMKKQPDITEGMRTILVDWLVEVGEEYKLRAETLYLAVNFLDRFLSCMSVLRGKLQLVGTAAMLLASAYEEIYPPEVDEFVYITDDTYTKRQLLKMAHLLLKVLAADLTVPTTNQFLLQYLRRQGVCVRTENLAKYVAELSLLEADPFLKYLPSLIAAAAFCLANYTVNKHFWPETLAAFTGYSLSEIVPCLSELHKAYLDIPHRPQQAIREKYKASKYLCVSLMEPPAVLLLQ
E10A: -0.498
K8A: 0.00828
P13A: -0.00681
P6A: 0.0407
I7A: -0.283
R5A: -0.157

Series 3
Target: ABI1, truncated, D143A, DHFR fusion (Arabidopsis thaliana, UniProt P49597)
Method: DHFR PCA, dose-response
Sample: yeast
Notes: Hill fit, mean, not affinity
With: (+)-ABA, dose series
Reading: lower = more sensitive
Quantity: ABA EC50
Parent: PYL1, truncated, DHFR fusion (Arabidopsis thaliana, UniProt Q8VZS8); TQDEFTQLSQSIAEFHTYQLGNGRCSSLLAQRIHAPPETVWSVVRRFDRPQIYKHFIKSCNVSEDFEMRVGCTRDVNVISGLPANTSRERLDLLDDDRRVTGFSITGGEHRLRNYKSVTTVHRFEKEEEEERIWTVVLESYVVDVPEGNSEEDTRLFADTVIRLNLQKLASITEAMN
V100K: 278 µM
T154L: 78.2 µM
S104T: 2.46 µM
N114R: 31.6 µM
T101H: 94 µM
I57Y: 187 µM
N22Y: 2.3 µM
G21R: 2.44 µM
T86L: 33.3 µM
V118Y: 192 µM
D75H: 1.36 µM
G21E: 1.99 µM
E147P: 2.66 µM
H55C: 0.232 µM
G108E: 287 µM
G102M: 63.9 µM
W134T: 0.961 µM
M176A: 2.3 µM
T1K: 1.71 µM
H55F: 1.55 µM
N114G: 4.02 µM
E151D: 3.33 µM
F157A: 583 µM
R90L: 66.4 µM
Q31A: 41.7 µM

Series 4
Target: RING finger protein unkempt homolog, zinc fingers 1-6, SBP tag (UNK, Homo sapiens, UniProt Q9C0B0, residues 30-357)
Chain of UniProt Q9C0B0 (30-357, looked up): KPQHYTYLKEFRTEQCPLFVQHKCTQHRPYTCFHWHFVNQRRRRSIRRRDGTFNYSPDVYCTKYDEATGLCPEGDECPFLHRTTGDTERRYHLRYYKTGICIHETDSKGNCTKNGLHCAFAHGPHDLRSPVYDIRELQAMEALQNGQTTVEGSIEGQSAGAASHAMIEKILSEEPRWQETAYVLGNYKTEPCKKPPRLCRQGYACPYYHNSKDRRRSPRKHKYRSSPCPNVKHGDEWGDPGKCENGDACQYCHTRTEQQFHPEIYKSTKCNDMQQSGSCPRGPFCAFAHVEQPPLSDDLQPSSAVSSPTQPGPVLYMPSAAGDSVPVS
Method: RNA Bind-n-Seq
Molecule type: RNA
Sample: in vitro
Tested at: 100 nM
Notes: RNA with constant flanks, vertebrate orthologous sites, ends assumed
Relative to: input RNA pool
Reading: higher = stronger binding
Quantity: bound/input enrichment
All sequences stand within: GGGAGUUCUACAGUCCGACGAUC … CAACAGAGGAUUGAGCAUCA
UCAUUGUACUGCCAAAGUUAUCCUAGUUCUAAAGUAGCCAUAGUGAUAACUAGUCUACACUAGCAGAAUCAUUUGUUGUCACUUUUUAAAAUUAUCUGCUUUGUCUGGUACCUGGAACCA: 0.472 ratio
CUUAAUUAGAGGGUAGUAUAUGUUUCAUAAAGAAGAGUCUUUAUAAUUUUGUUUGUCAUAUAGUAUUUCGGAAUUUGUAUAAUGAGGAUGUUUAGAAGCCAUAUCAAUGGCUUUUUUUAA: 0.57 ratio
GCAAUGAAAAAGCAGCCCUUCUCCCAGCCCCCUUUUCACUAGGAGAUACAAACGUUACCGUAGAAGAGCAAUUAAACUCAAUAAAUUUAUCUUUUCAGGAUGAUCCAGACUCCAGUACCA: 1.2 ratio
GGGAGAUAAUGAGUAGUAUAGAAGAGAAACAUUUUUUGUCUUCCUCUUUUAAUCACUACCUAAUCUACUUUUUAAAAUUUGGACUUCACUACUCUGAAUUGAUAAUUCCAAUUUUCACAC: 0.173 ratio
CAUUAACACACGAAAUGUCUCCAGGGGGGUAUUAGAUUUGAUUUCUUACAUAUAAAACAAACCAACCAACCAUUUUUAAAGUAGAAGAGGGUUUUAGCUAGUAAAUGAAAUAUUCUUUUU: 2.09 ratio
UUUCUCCCCCCUCCCAAAGGGAGUGGGGAGAGCCCAGGAUGACCCUCAGCUGUUCCAAUCCAGUAUUUUUUUUUCUUUUUUAAAAUUACUGUAUUUAUUAUGACGAUGGUGACUCCCCAG: 0.5 ratio
AUUAUUCAUUUGGCUGAAAUUAUUUAGAUAAGAAAUUACUAGUUUUCUUUCAAACAGCAUAUCCUAUUUUUCAUCUACUUUGCAAAUACAAGUUUUCUGUGAUUUCUUAACAUGCCAAAA: 0.574 ratio
GAGUGCUUAAGCUGCCAACAGUUAGAAGAUGCUAUUUAUUUGUGUCUGUAAGUUUGUACAUAGUAAUGCCAGCCUUGUUGCUGAAUUUUUUAUUUGGGGGGAGAUGACUUUGAAUUUUGU: 2.65 ratio
UCGGGUGUCCCUGUGGGGUGCUGUCGGCCCCUUAGAGUCGUUUGAUUUGUGACCUUGACAUAAUAGAUAGGCUUGUGGUUUUUUUAAUUUAAAGAUAUUAAGACUUAAUUCACUAAAAUU: 0.609 ratio
CUACUAUAAACAACUCAGGGCAGUAUUCUCGAUAUCCUUACAGUAACCUUAAUCAGGGAUUAGUUAAUAAUACAGGGAUGAAUCAGAAUUUAGGCCUUACGAAUAACACUCCAAUGAAUC: 0.772 ratio
CAUUAACACACACAAUGUCUCCAGGGGGGUAUUAGAUUUCAUUUCUUACAUAUAAAACAAACAAAACCAACCAACGAACCAUUUUUAAAGUAGAAGAGGGUUUAAAAUAGAAAAUGACAU: 2.33 ratio

Series 5
Target: NFE2L1, bZIP domain (human)
Method: DHFR protein complementation
Sample: yeast
Notes: single substitutions, most at no-binding floor
Relative to: wild-type JUN-FOS pair
Reading: higher = stronger binding
Quantity: binding fitness
Parent: JUN, bZIP domain (human); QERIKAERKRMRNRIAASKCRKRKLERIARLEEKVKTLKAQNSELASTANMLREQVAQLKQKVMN; partner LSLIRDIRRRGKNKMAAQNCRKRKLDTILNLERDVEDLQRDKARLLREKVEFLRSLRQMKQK
K36P: -1.55 natural log
A29K: -1.12 natural log
A57P: -1.43 natural log
E32C: -1.54 natural log
I28G: -1.44 natural log
E33P: -1.5 natural log
Q55S: -1.33 natural log
A49V: -1.36 natural log
E44G: -1.46 natural log
S47K: -1.51 natural log
N42E: -1.53 natural log
L45Y: -1.53 natural log
E44I: -1.56 natural log
V35A: -1.33 natural log
V35R: -1.53 natural log
A49L: -1.41 natural log

Series 6
Target: Phosphate system positive regulatory protein PHO4, full length, GST-tagged (PHO4, Saccharomyces cerevisiae, UniProt P07270, residues 1-312)
Method: competition protein-binding microarray
Molecule type: double-stranded DNA, one strand shown
Sample: in vitro
Tested at: 2 µM
Notes: whole 60-bp probe, lowest competitor level
With: Cbf1 competitor, 0.05 µM
Reading: higher = stronger binding
Quantity: fluorescence intensity
All sequences stand within: … GTCTTGATTCGCTTGACGCTGCTG
Construct (chain): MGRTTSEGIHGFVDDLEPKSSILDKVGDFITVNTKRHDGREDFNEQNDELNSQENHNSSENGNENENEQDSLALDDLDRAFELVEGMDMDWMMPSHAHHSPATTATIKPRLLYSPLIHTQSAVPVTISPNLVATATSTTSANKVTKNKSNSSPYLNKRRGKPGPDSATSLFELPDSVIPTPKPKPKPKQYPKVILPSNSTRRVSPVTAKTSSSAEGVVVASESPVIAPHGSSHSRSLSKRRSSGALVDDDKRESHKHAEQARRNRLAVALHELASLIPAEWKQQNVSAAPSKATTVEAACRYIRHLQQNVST
AAACCCGGGCTGAAATCCGTGCAATGCATCAAATTT: 4370 a.u.
GGCCGCCCATGGCCGCATGTGAGCAACGTCGACATT: 6490 a.u.
CGGGGTTAAGTTTTTCACGTGCGGTGCTTGCAGCAG: 14200 a.u.
CGTCCTAGTGATTGTCACTTTACTTCCATGAGGAAG: 4700 a.u.
TAGTTTTTCGCAAGCCATGCGTGTACTTTCGTTTTT: 7450 a.u.
CGTCCTAGCGATTGAGATGTGGGTGCCATGAGGAAG: 7110 a.u.
AGGGTCTGATCCCTTCCCGTGGGTAGACCGATGACC: 6990 a.u.
CGTCCTAGTGATTGTCACTGAACTTCCATGAGGAAG: 3810 a.u.
GTCTTGTCTCATTGACCCGTGGGTGTCCCCACTTCA: 8280 a.u.
TGCGCAACAACTTGACTCGTGGGTGTATGTCTAGAA: 11100 a.u.
CGGGGTTAAGTTTGACCAGTGGGTGGCTTGCAGCAG: 4300 a.u.
CATACCCAACCTTGTCACTTAACTTAAGATATTTGT: 3710 a.u.
TAGTTGTCGTCGTTTCATGTGACGGATTCCCCTTTA: 4250 a.u.
TGAAGTGCCTGGCATCAGGTGAAACGGACCCCAAAG: 3250 a.u.
TGATAGTTTTTCTCCCTCGTGAAGCAGCATGTTTTA: 8450 a.u.
TTCGATCAAGGCAACAACGTGGTGAAAACCGTACTT: 12800 a.u.
AAAGCGGTAATTTGATGGGTGGGTGCAGATATCTAT: 4750 a.u.
CGGGGTTAAGTTTGAGTGGTGGGTGGCTTGCAGCAG: 4860 a.u.
GAAGGAGTGCGGGACCCCGTGGGTACCGCATCCCTT: 9180 a.u.
CATACCCAACCTTGACAGGTGGGTGAAGATATTTGT: 5710 a.u.
CATACCCAACCTTGTCACACGACTTAAGATATTTGT: 6820 a.u.
CCCATTGAATTCGGGAATGTGCGGGTTTCAGATTGC: 6570 a.u.
TGTGCTTGATAGCTTACCGTGCAAAAAATAATGGGT: 4950 a.u.
TTTCGGTTTTTATCGCACGTTTCTTTTTGGTGAGCG: 14100 a.u.
CGTCCTAGCGATTGAATGGTGGGTGCCATGAGGAAG: 6360 a.u.

Repeated from above (series 1):
TTAGGTCTCCTTTTGCTTTAGTGCTAG: 1.99 z-score
GACGGTATCGGATATCGGGACGTGCTA: 0.23 z-score
GACGGTTCCCTTTTCCTGTCGTGCTAG: 3.69 z-score
TTATGTTTCCTACTGCTTTAGTGCTAG: 1.41 z-score
TTAGGTTTAGGTCTCGGTTAGTGCTAG: 1.33 z-score
TTAGATTTGAGTATCGATTAGTGCTAG: 1 z-score
TTAGGACTGCTAGTGCTTTAGTGCTAG: -0.698 z-score
TCATAAGCAAAAATGATACTGTGCTAG: 0.255 z-score
AACGAACTGAGTCTCGAGACGTGCTAG: 0.41 z-score
TTAGATACCGGGACTGGATTAGTGCTA: -0.0116 z-score
